Assay results gathered from unrelated publications.
Protocols differ between the studies behind these lines. ± gives the spread as reported.

`CCCOc1ccc([C@H]2CNC(=O)N2c2ccc3[nH]cnc3c2)cc1` gave a concentration of 26.9 ng/mL (phase 1 pharmacokinetics; elderly humans, fasted, CSF; oral, 500 mg twice daily, tablet, 12 h after final dose, day 11).
The concentration of `O=C(N[C@H](Cc1c[nH]c2ccccc12)C(=O)Nc1ccncc1)c1ccc(-c2ccc(F)c(Cl)c2)cc1F` is reported as 1410 nM (Swiss Webster mouse, female, brain; oral, 50 mg/kg, 8 h, 20% HPβCD vehicle).
With `CN(C(=O)n1cnc(-c2cccnc2)c1)C1CCCCC1` the concentration was 5.8 ± 0.2 ng/g (Wistar rat, cerebellum; oral, 10 mg/kg/day of BIA 10-2474, 24 h, repeated 5 days).
For `COc1ccc2c(=O)n(C)c(-c3ccccc3)nc2c1`, the concentration was 30.9 ng/g (Sprague-Dawley rat, male, heart; oral, 30 mg/kg, 2 h).
With `CC(C)NCC(O)c1ccc(NS(C)(=O)=O)cc1` (racemic) the QTc interval was 382 ± 0.6 ms (male Hartley guinea pig, anaesthetized; intravenous infusion, 10 mg/kg, 10 min infusion, post-infusion).
`CCc1ccc(-c2ccc(-c3cc(F)c(F)c(F)c3)c(F)c2)cc1` has a concentration of 0.97 ng/mL (refers to: compound; human pregnant women, male fetuses, cord serum; dose not given, paired maternal-cord samples, mean).
For `C[C@H](CS)C(=O)N1CCC[C@H]1C(=O)O`, the QTc interval was 334 ± 0.6 ms (male Hartley guinea pig, anaesthetized; intravenous infusion, 10 mg/kg, 10 min infusion, post-infusion).
For `O=C(N[C@H](Cc1c[nH]c2ccccc12)C(=O)Nc1ccncc1)c1ccc(-c2cc(C(F)(F)F)ccc2F)cc1F`, the concentration was 38300 nM (Swiss Webster mouse, female, lung; oral, 50 mg/kg, 8 h, 20% Kolliphor vehicle).
The concentration of `CC=CC1CCC(C2CCC(CCC)CC2)CC1` (centres unmarked) is reported as 1.08 ng/mL (refers to: compound; human pregnant women, female fetuses, maternal serum; dose not given, paired maternal-cord samples, mean).
For `Cc1cnc(N2CC3(CCOCC3)C2)c(C(=O)Nc2ccc(C(=O)N3CCc4cc(C(=O)Nc5c(C)cccc5F)sc4-c4ccccc43)cc2)c1`, the concentration was 23600 ng/mL (human, nasal epithelial lining fluid; inhaled, 5 mg twice daily, 6 h).
With `CCCC1CCC(c2ccc(-c3ccc(F)c(F)c3)cc2)CC1` (centres unmarked) the concentration was 0.24 ng/mL (refers to: compound; human pregnant women, female fetuses, maternal serum; dose not given, paired maternal-cord samples, mean).
For `CCc1c(-c2ccccc2)c(-c2ccccc2)nn1-c1ccccc1-c1cccc(OCC(=O)O)c1`, the concentration was 299 ng/mL (female Sprague-Dawley rat, ovary homogenate; oral, 10 mg/kg, 4 h).
`Cc1cc(Nc2ccc(S(F)(F)(F)(F)F)cc2)n2nc(C(C)(F)F)nc2n1` — result for “patients with eye disorders”: 7.7% (Plasmodium falciparum; P. falciparum malaria patients; oral, 400 mg).
`Cn1cc(-c2ccc(-c3cncc(Cl)c3N3CCC4(CCNC4=O)CC3)cc2)cn1` — result for “log2 fold change”: 2.41 (COLO 205; gene expression, microarray, refers to: SQSTM1 mRNA; concentration not given, 6 h; baseline: untreated cells).
With `CC(C)C[C@H](NC(=O)C[C@H](O)[C@H](CC(C)C)NC(=O)[C@H](Cc1c[nH]cn1)NC(=O)CNC(=O)[C@@H](NC(=O)[C@H](C)NC(=O)[C@H](Cc1c[nH]c2ccccc12)NC(=O)[C@H](CCC(N)=O)NC(=O)[C@@H](Cc1ccccc1)NC(=O)COCCOCCNC(=O)CCC(C(=O)O)N1CCN(CC(=O)O)CCN(CC(=O)O)CCN(CC(=O)O)CC1)C(C)C)C(N)=O` (some centres unmarked) [lutetium-177 labelled] the tissue uptake was 0.3 ± 0.5 %ID/g (female BALB/c nu/nu mice, liver; intravenous, 100 pmol, 90 h, together with: PA 300 µg).
`O=C(N[C@H](Cc1c[nH]c2ccccc12)C(=O)Nc1ccncc1)c1ccc(N2CCN(c3ccc(F)cc3F)CC2)cc1F` gave a concentration of 1670 nM (Swiss Webster mouse, female, plasma; oral, 50 mg/kg, 8 h, 20% HPβCD vehicle).
For `CCCCc1ccc(C#Cc2ccc(OCC)cc2)cc1`, the concentration was 0.48 ng/mL (refers to: compound; human pregnant women, male fetuses, maternal serum; dose not given, paired maternal-cord samples, mean).

A few entries again:
With `CCCC1CCC(c2ccc(-c3ccc(F)c(F)c3)cc2)CC1` (centres unmarked) the concentration was 0.24 ng/mL (refers to: compound; human pregnant women, female fetuses, maternal serum; dose not given, paired maternal-cord samples, mean).
For `CCc1c(-c2ccccc2)c(-c2ccccc2)nn1-c1ccccc1-c1cccc(OCC(=O)O)c1`, the concentration was 299 ng/mL (female Sprague-Dawley rat, ovary homogenate; oral, 10 mg/kg, 4 h).
`Cc1cc(Nc2ccc(S(F)(F)(F)(F)F)cc2)n2nc(C(C)(F)F)nc2n1` — result for “patients with eye disorders”: 7.7% (Plasmodium falciparum; P. falciparum malaria patients; oral, 400 mg).
